Results gathered from unrelated publications.
Numbered parts are unrelated; each lists some results of a single study. Positions count from the first letter of the parent shown.

Set 1 — target: CCND3, cyclin fold, Cln2 fusion (human); technique: yeast growth competition, sequencing; medium: yeast; setting: weak parent motif; relative to: not given; direction: higher = stronger binding
Starting sequence: RBL1 docking peptide (human); GSAKRRLFGEDPP
Under “normalised enrichment score”, `GEAKRRLFGEDPP [S2E]` is recorded as 0.102.
`GSAKRRLFGEDPV [P13V]` — result for “normalised enrichment score”: 0.206.
`GSAKRNLFGEDPP [R6N]` — result for “normalised enrichment score”: 0.131.
`GSAKDRLFGEDPP [R5D]` — result for “normalised enrichment score”: 0.0918.
Under “normalised enrichment score”, `GSAKRRLFGEDPN [P13N]` is recorded as 0.135.
`GSAKRRLFGTDPP [E10T]` — result for “normalised enrichment score”: 0.123.
Under “normalised enrichment score”, `GSAKRRLFGEDIP [P12I]` is recorded as 0.126.
`GSAKRRLFGLDPP [E10L]` — result for “normalised enrichment score”: 0.146.
`GSAKIRLFGEDPP [R5I]` — result for “normalised enrichment score”: -0.00319.
Under “normalised enrichment score”, `GSTKRRLFGEDPP [A3T]` is recorded as 0.177.
For `GDAKRRLFGEDPP [S2D]`, “normalised enrichment score” read 0.0479.
`GSAKRKLFGEDPP [R6K]`: “normalised enrichment score” 0.113.
Under “normalised enrichment score”, `GSAKRRLFGVDPP [E10V]` is recorded as 0.14.
`GSAKRRLFGQDPP [E10Q]` — result for “normalised enrichment score”: 0.0432.
Under “normalised enrichment score”, `GSAKRYLFGEDPP [R6Y]` is recorded as 0.237.
`GSAKRRLFGEAPP [D11A]`: “normalised enrichment score” 0.179.
`GSAKKRLFGEDPP [R5K]`: “normalised enrichment score” 0.0257.

Set 2 — technique: RNA Bind-n-Seq; molecule type: RNA; medium: in vitro; concentration: 100 nM; relative to: input RNA pool; direction: higher = stronger binding
Target: RING finger protein unkempt homolog, zinc fingers 1-6, SBP tag (UNK, Homo sapiens, UniProt Q9C0B0, residues 30-357)
Chain of UniProt Q9C0B0 (30-357, looked up): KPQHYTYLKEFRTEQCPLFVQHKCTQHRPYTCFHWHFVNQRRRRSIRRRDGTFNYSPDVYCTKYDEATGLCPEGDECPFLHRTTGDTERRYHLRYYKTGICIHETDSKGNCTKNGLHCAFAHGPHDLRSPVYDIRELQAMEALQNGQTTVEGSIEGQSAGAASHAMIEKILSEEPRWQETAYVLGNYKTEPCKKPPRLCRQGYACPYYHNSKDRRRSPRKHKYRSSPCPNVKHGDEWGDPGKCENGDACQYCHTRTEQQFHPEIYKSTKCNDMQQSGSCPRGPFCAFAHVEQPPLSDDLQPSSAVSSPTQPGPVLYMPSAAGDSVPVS
Setting: RNA with constant flanks, vertebrate orthologous sites, ends assumed
For `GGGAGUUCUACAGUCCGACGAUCCUUUAUGGGCCUCGAAGAGUUGAAAUAAUGGAAGAAGAAAAUGAACAGUAAUCUUCAAUUUAGUAUUUAUGCCUAGGUGUGAUAUAAAUUUUUUUGUUAUCAUUUCUAUAAUCUUGAGCUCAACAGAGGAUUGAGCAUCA`, the bound/input enrichment was 1.23 ratio.
The bound/input enrichment of `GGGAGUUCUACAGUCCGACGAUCGGGACGCUUUGAUGUAAAAAUUGAAGUUAAGAGCUGAUCACAAGCACACAUCUUUCUCACUAGCCAUUUAAAAAAAGUAAAAAAGAUACAAAAACCUACUAGUCUUGAACAAACUGUCAUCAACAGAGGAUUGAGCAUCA` is reported as 0.911 ratio.
For `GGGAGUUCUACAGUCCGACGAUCUUGUGAGGAAGGGGAAAGACUAGAUUCUUCUCUUCCCAAGUAAAACUGAAAUAAUCUGCUUUUAUUUCUGUCUUGGAAAACAAAGAUGGCCUUUUCUCUUAAUUGUGUAACAAUACCAUCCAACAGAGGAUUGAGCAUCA`, the bound/input enrichment was 0.313 ratio.
`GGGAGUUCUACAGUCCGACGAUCGGACCAUACAUAUACAAUGUGUAUCAAAUGCUGGUUGCAAAAUUAAACCAUCAUCUAGAAUAGAGUUAAUUUGUUAUAAUCAAGUUACAAAUAGGUUUUCUUAAACCAGAGAUGCACCGCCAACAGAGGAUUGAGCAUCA` gave a bound/input enrichment of 0.496 ratio.
`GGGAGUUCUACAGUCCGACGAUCGCACAUGCCGCUAUCACCAAAAGCAAAUUGCCAUUUUUCAAAUUUCAUCCAGAGCCGUUUUAGUGUUUUCCUAUUCCCUGCCCUUCCCAUUACUUUCAGUGAUGAAAGUUCUCCUCUGACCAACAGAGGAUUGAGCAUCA` gave a bound/input enrichment of 2.22 ratio.
`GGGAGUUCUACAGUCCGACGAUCAUUGCCUACAAUAAUGAAAACCUAUAAAAUUUUUUUGUUUUUCAUUUCCCCCUUAGGCAUAAUUAGUCUUUUUUCCCAGGCAGAUCAUUCUGAGUGUGCGAGUGUGUGUGCACAUGUUACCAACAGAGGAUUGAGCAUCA` has a bound/input enrichment of 0.979 ratio.
`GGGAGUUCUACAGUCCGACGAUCAUGUAUGUAGAAAAAAAUUUUCAUUCAUCUUCCUGUUGUGAAAUUCUCUAGCACUGUAUUUAGAUUCUGGAUUUUUAUAAUUCAUGCUUAAUGUAUUAGACAUUUUAGCUCAUAAUUAAACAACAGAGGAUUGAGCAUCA` has a bound/input enrichment of 0.633 ratio.
For `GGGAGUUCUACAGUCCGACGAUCUAUAAUUAUGAAAAUCUAAAGGAUUUUUAAUGUUUAAUUUCCCCUAGCAUCUCUAUUAAGACCUCUUUUUUCCAGGCAGAUCAUUCAGAGUGUGCGAGUGUGUGUGCACAUGUUACAAAGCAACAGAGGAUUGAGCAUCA`, the bound/input enrichment was 1.17 ratio.
With `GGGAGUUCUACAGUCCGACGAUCGGGUUUGGGGUAGAAGGGAGGGAGGGGGCAGGACAGUGUGGAAUCUCUAGGGUGUAUGGGUAGGUAGGGGGCACAGUUAGUUCUAAGUGGGCCUUUAUGCUAAAAGCCUCUGGGGAUAUCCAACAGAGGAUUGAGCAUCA` the bound/input enrichment was 0.978 ratio.
`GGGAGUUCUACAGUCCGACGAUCUAUUAGUGUCAUACCAGCAUAUUAACCUCUCGUCUGUGCACAGCUUCAAAUGUUACCGUCUAGUUAGAUUUUUAUUUAAAAUAUGAAAGACUGCUUUUCCCAAGACGUUUUUUAAAAACACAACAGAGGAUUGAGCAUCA` has a bound/input enrichment of 1.94 ratio.
The bound/input enrichment of `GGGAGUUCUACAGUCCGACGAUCACCCGAAGCACGGACAGAAGGAAAACCUGCUCACUGUGUCCACCCGCACCACGACGUGGUCCGUGGAUUUUUUUUUUUUUUUCUGCCUCAGAGUCCCCAAAGCCUUUAAGCAAAAGUGGCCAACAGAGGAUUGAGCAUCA` is reported as 0.725 ratio.

Set 3 — technique: protein binding microarray; molecule type: double-stranded DNA, one strand shown; medium: in vitro; concentration: not given; relative to: not given; direction: higher = stronger binding
Target: Histone acetyltransferase KAT6A, winged helix 1, GST fusion (KAT6A, Homo sapiens, UniProt Q92794, residues 1-85)
Setting: 8-mer, flanks averaged, mean of 2 arrays, mostly near background
Residues (chain): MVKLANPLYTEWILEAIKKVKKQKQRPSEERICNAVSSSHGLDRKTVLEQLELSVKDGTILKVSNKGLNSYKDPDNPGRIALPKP
For `ATCTCTCA`, the E-score was -0.0799.
`CGTCCTCC` has an E-score of 0.178.
With `CGCGAGCG` the E-score was 0.411.
`ATCGTTTC` gave an E-score of -0.155.
The E-score of `ATTTGGAC` is reported as -0.131.
With `GTTAATCA` the E-score was -0.126.
The E-score of `CGCTATAC` is reported as 0.197.
`CATTATAG` has an E-score of 0.0204.
With `TAACTTCA` the E-score was -0.0857.
`GCCCGGCA` has an E-score of 0.284.
With `ATAGGTTA` the E-score was 0.0248.
With `ACTACCGC` the E-score was 0.291.
For `CGATTCCC`, the E-score was 0.0562.
The E-score of `AGCACGGC` is reported as 0.237.
The E-score of `GTAGATGA` is reported as -0.126.
`ATCGGAGG` has an E-score of -0.0281.
For `AGAGTCTC`, the E-score was -0.0575.
With `GAGACCTC` the E-score was -0.25.
`GTCTAAAA` has an E-score of -0.0445.
`AGAGGTTC` has an E-score of 0.0732.
For `CATAATCC`, the E-score was -0.244.
The E-score of `AGGGCCGC` is reported as 0.373.

Other studies, line by line
`PhoQ, residues 284 288 289 292 302 303 QWQEDG` gave a fold induction of 3.15 (PhoP, residues 12 14 15 18 19 SYFRT (Escherichia coli, UniProt P23836); Sort-seq, measured: YFP reporter; E. coli; PhoQ-PhoP variant library, together with: 10 µM Mg2+; relative to: high Mg2+ state, higher = stronger signaling).
